Experimental data collected from several papers.
Parts stem from different laboratories: compare values within a part only.

Series 1
Target: Histone acetyltransferase KAT6A, winged helix 2, GST fusion (KAT6A, Homo sapiens, UniProt Q92794, residues 85-181)
Method: protein binding microarray
Molecule type: double-stranded DNA, one strand shown
Medium: in vitro
Concentration: not given
Notes: 8-mer, flanks averaged, mean of 2 arrays, mostly near background
Baseline: not given
Reading: higher = stronger binding
Construct (chain): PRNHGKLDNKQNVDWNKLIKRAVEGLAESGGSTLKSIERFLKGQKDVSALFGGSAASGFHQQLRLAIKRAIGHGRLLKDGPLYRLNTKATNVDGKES
| Oligonucleotide | E-score |
| --- | --- |
| ACTAGGGC | -0.0921 |
| ACAAGGCA | -0.0744 |
| GTCCCACA | 0.0776 |
| GTAGTGTA | -0.0387 |
| AATGTTCC | -0.041 |
| CCGAAGTC | -0.116 |
| TATAGGCA | -0.0492 |

Series 2
Target: Sal-like protein 4, full length isoform B (SALL4, Homo sapiens, UniProt Q9UJQ4-2, residues 1-616)
Method: universal PBM
Molecule type: double-stranded DNA, one strand shown
Medium: in vitro
Concentration: not given
Notes: 8-mer, flanks averaged, mean of replicates
Reading: higher = stronger binding
| Oligonucleotide | E-score |
| --- | --- |
| ACAGCTCC | -0.142 |
| GTTTCCGA | -0.256 |
| ACGTCGCA | -0.182 |
| AGAGTGCA | -0.0863 |
| GCGTAGCC | -0.272 |
| AATGGGAT | 0.044 |

Series 3
Target: Transcriptional repressor CTCF (CTCF, Homo sapiens, UniProt P49711, residues 1-727, full length assumed)
Chain of UniProt P49711 (whole entry, looked up): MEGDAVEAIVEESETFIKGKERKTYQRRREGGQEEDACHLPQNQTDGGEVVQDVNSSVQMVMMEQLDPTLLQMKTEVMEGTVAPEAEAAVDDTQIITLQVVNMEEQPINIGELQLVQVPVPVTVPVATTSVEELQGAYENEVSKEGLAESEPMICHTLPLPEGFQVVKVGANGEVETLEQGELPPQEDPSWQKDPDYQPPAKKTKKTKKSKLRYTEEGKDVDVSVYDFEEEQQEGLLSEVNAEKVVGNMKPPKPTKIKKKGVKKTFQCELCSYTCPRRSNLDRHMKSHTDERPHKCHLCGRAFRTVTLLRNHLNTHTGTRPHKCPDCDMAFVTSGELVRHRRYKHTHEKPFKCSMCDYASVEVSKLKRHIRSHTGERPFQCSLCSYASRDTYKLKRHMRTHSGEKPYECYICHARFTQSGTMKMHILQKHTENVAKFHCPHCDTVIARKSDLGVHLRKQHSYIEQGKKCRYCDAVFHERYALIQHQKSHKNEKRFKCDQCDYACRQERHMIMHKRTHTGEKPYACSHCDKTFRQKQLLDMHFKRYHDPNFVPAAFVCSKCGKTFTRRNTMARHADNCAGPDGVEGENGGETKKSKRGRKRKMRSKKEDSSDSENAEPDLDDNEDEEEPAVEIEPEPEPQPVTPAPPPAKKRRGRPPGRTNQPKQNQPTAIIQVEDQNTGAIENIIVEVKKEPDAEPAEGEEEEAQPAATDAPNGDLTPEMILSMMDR
Method: protein-binding microarray
Molecule type: double-stranded DNA, one strand shown
Medium: in vitro
Concentration: not given
Notes: k-mer, scored over probes, only values ≥0.25
Reading: higher = stronger binding
| Oligonucleotide | E-score |
| --- | --- |
| TATTAAAA | 0.341 |
| GTAATAAA | 0.307 |
| GTACGTAA | 0.31 |
| TATTTACA | 0.31 |
| ATCGTACA | 0.253 |
| ACAAATAT | 0.297 |
| AATAAACG | 0.27 |
| AAAAACGA | 0.316 |
| CATATTTA | 0.324 |
| AAAAAAAA | 0.302 |

Further values, each from its own experiment
| Substance | target | assay | test system | setting | scale | quantity | result |
| --- | --- | --- | --- | --- | --- | --- | --- |
| PhoQ, residues 284 288 289 292 302 303 SLCLSL | PhoP, residues 12 14 15 18 19 STHWV (Escherichia coli, UniProt P23836) | Sort-seq, measured: YFP reporter | E. coli | PhoQ-PhoP variant library, with: 10 µM Mg2+ | baseline: high Mg2+ state, higher = stronger signaling | fold induction | 4.17 |

Excerpt of the above (further values, each from its own experiment):
| Substance | target | assay | test system | setting | scale | quantity | result |
| --- | --- | --- | --- | --- | --- | --- | --- |
| PhoQ, residues 284 288 289 292 302 303 SLCLSL | PhoP, residues 12 14 15 18 19 STHWV (Escherichia coli, UniProt P23836) | Sort-seq, measured: YFP reporter | E. coli | PhoQ-PhoP variant library, with: 10 µM Mg2+ | baseline: high Mg2+ state, higher = stronger signaling | fold induction | 4.17 |
